Published values from different studies.
Numbered parts are unrelated; each lists some results of a single study. Substitutions count along the parent as printed.
UniProt P23975, sequence (whole entry, looked up): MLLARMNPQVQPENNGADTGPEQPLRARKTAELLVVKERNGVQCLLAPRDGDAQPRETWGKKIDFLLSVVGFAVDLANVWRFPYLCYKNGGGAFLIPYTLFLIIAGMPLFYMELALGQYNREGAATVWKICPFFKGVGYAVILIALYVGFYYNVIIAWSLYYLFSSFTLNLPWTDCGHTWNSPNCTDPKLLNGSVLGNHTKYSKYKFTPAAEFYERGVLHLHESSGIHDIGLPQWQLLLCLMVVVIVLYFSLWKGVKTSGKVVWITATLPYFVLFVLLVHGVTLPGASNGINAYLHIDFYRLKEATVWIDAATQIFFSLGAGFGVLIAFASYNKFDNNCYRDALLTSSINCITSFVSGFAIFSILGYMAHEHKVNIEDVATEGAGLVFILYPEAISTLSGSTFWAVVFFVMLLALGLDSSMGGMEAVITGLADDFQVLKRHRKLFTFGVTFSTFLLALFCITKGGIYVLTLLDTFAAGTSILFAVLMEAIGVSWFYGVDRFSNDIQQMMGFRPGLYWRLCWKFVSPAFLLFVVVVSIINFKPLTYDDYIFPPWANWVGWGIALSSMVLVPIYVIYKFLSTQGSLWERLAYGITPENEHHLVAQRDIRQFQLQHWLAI

Set 1 — technique: protein-binding microarray; molecule type: hairpin DNA; medium: in vitro; concentration: not given; relative to: not given; direction: higher = stronger binding; constant ends, left off below: GAGGCCA … TGGCCTCACACTC
Target: GDNF-inducible zinc finger protein 1, full length (GZF1, Homo sapiens, UniProt Q9H116, residues 1-711)
Setting: whole hairpin DNA, median over replicate spots
Residues (chain): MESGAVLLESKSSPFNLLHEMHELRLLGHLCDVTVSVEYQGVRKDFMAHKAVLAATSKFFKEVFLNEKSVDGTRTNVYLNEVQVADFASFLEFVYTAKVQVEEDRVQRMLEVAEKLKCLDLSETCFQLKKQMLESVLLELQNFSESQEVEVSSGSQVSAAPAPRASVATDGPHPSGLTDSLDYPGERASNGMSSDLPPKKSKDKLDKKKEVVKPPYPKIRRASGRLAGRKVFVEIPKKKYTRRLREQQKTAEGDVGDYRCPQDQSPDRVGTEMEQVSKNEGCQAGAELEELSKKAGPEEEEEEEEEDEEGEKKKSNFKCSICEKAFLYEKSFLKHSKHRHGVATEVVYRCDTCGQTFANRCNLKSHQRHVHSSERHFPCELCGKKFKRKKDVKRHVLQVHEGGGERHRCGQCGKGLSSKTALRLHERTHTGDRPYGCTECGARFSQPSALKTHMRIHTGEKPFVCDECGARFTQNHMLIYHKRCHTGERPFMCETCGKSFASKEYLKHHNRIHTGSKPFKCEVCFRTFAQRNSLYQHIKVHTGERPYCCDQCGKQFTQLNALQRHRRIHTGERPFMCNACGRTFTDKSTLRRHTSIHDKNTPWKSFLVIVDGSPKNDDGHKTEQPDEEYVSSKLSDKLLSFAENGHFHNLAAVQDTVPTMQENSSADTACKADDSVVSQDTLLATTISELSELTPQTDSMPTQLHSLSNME
Strand | median fluorescence [a.u.]
TTCGGGTAATGCCTCCTGGCATTACCCGAA (5mC at 34) | 445
TCACGGTAATGCCTCCTGGCATTACCGTGA (5mC at 9) | 619
TTACGGTAATGCCTCCTGGCATTACCGTAA (5mC at 11 33) | 471
TTACGGTGATGCCTCCTGGCATCACCGTAA | 528
CGACGGTAATGCCTCCTGGCATTACCGTCG | 752
TTAGGGTAATGCCTCCTGGCATTACCCTAA | 351
TTACGGTACGGCCTCCTGGCCGTACCGTAA (5mC at 28) | 666
TTACGGTGATGCCTCCTGGCATCACCGTAA (5mC at 30) | 600

Set 2 — target: CCNB1, cyclin fold, Cln2 fusion (human); technique: yeast growth competition, sequencing; medium: yeast; setting: weak parent motif; relative to: not given; direction: higher = stronger binding; starting sequence: viral docking peptide; CKVKRKLFGSENI
Variant | normalised enrichment score
S10A | 0.711
K2A | 1.67
R5K F8L | 0.117
C1A | 0.461
N12A | 1.06
I13A | 1.98
F8A | 0.309

Set 3 — technique: RNA Bind-n-Seq; molecule type: RNA; medium: in vitro; concentration: not given; relative to: input RNA pool; direction: higher = stronger binding
Target: RING finger protein unkempt homolog, zinc fingers 1-6, GST-SBP tag (UNK, Homo sapiens, UniProt Q9C0B0, residues 30-357)
Setting: RNA with constant flanks, human and mouse sites, ends assumed
Construct (chain): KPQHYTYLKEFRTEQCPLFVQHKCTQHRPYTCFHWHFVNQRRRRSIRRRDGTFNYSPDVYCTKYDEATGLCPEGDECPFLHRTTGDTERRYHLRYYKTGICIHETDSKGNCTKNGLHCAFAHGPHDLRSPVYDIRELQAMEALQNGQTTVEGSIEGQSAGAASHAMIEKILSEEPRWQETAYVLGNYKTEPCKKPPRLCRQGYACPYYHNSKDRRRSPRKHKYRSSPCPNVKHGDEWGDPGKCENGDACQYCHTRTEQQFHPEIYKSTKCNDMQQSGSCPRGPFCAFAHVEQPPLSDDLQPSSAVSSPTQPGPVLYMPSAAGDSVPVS
Strand | bound/input enrichment [ratio]
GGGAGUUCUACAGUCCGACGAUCACGCAGUGUCUGCUGGGGCUGCGCACGUUCGUGGCCUUCGCCGCCAAGCUCUGGAGCUUCUUUAUUUACCUUUUGCGGAGGCAGAUCCGCACGGUAAUUCAGUAUCAGACUGUUCGAUAUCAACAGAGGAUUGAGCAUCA | 0.0644
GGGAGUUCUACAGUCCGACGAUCCUGAUCAUUGGAAAAGGAGGUGAAACCAUAAAAAGCAUAAGCCAACAGUCUGGUGCAAGAAUAGAACUGCAGAGAAGCCCUCCACCUAAUGCAGAUCCCAAUAUGAAGUUAUUUACAAUUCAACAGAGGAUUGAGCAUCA | 0.225
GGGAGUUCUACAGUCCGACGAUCAAGACGCCCAUCCGGAACAGGGCCUUCUACAUGGAGGAGGGCGUGCCCUAUUGCGAGCGAGACUAUGAGAAGAUGUUUGGCACGAAAUGCCAUGGCUGUGACUUCAAGAUCGACGCUGGGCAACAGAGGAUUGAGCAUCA | 0.0828
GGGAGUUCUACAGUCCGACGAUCUCCGUUUUGGAAGAGUUGCAGAAAGACCUAGAAGAGGUCAAAGUAUUGCUGGAAAAGUCCACUAGGAAAAGACUACGUGAUACUCUUACAAGUGAAAAGUCCAAGAUUGAGACGGAACUCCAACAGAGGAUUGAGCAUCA | 0.356
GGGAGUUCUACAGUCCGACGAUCCCUUCUUCUCAAACUAAGGAGCAACCUGGAUCCCCACACUCUGUAUCUGGAGAGAUCUUGGGUCAGGAAAAGCCCACAUACAGGUCGCCGUCUGGCGGUCUUCCUGUUUCUACCCAUCCACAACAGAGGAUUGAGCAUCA | 0.226
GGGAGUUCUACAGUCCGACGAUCCAGGGUCCCAAGACCAUUGACCAGAUCCAUAAGGAGGCUGAGAUGGAAGAACAUCGAGAGCACAUCAAAGUGCAGCAGCUCAUGGCCAAGGGCAGUGACAAGCGUCGGGGCGGUCCUCCACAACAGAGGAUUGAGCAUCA | 0.0533
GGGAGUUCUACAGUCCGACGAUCAACAUAAAUUGUAUUUCCUGUUUUAAUUCCAGGGGAAGUACUGUUUGGGAAAGCUAUUAUUAGGUAAAUGUUUUACAAAUUACUGUUUCUCACUUUCAGUCAUACCCUAAUGAUCCCAGCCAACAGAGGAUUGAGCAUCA | 0.475
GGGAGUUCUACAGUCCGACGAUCGAAUUAUUUCCCAAGUUACAAGCAAAUAUCUCAACUGGUGUCUCCAAGAUUCGACUUUUGACAAUAAGGAUACUAAAUCAUUUUGACAUCCGGCUUCCAGUUUCAAUGGAGGAUGAUGGGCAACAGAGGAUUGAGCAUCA | 0.174

Mixed results
SMILES | target | read-out | concentration | measurement | result
CN([C@@H]1CCc2c(CC(=O)O)c3ccccc3n2C1)S(=O)(=O)c1ccc(F)cc1 | Sodium-dependent noradrenaline transporter (SLC6A2, Homo sapiens, UniProt P23975) | ligand displacement | 10 µM | inhibition | 23.8%

Some of these lines once more (set 2):
Variant | normalised enrichment score
C1A | 0.461
N12A | 1.06
